Values quoted from earlier work that unrelated publications cite.
Compare with care: the assays were run in different laboratories. Numbers after ± are the reported error.

COc1cc2c(c(OC)c1OC)-c1ccc(OC)c(=O)cc1[C@@H](NC(C)=O)CC2  activity call (human FXR alpha; antagonist, Tox21 qHTS or literature; concentration not given): inactive
Cc1ccc([N+](=O)[O-])cc1S(=O)(=O)N(C)/N=C/c1cnc2ccc(Br)cn12  IC50 (ATR; kinase activity, inhibitor; with: 10 µM ATP): 21000 nM
C[C@]12CC(O)[C@@H]3c4ccc(O)cc4CC[C@H]3[C@@H]1CCC2=O (stereo partly shown)  EC50 (oestrogen receptor alpha; binding, competition binding): 786 nM
Oc1cccc(-c2nc(N3CCOCC3)c3oc4ncccc4c3n2)c1  IC50 (phosphatidylinositol 4-phosphate 5-kinase type I beta; enzyme activity, inhibitor; with: 10 µM ATP): > 100000 nM
[Sr+2]  EC50 relative to Ca2+ (BK channel (rat); channel activation, activator; hippocampal pyramidal cells, young rats; relative to: Ca2+): 19.6
Cc1c(C)c2c(c(C)c1O)CCC(C)(COc1ccc(CC3SC(=O)NC3=O)cc1)O2 (stereo not shown)  BSEP inhibition (bile salt export pump; transport, inhibitor; concentration not given): inhibited
O=c1[nH]c(=O)c2[nH]c(=O)c(=O)n(C[C@H](O)[C@H](O)[C@H](O)CO)c2[nH]1  kcat (Bacillus subtilis lumazine synthase; enzyme kinetics; recombinant β60 capsid; pH 7.0, with: substrate 2 fixed, 1 varied): 0.0433 ± 0.00167 s⁻¹
Cc1cc([C@H](C)Nc2ccccc2)c2oc(N3CCOCC3)cc(=O)c2c1  IC50 (phosphatidylinositol 4-phosphate 5-kinase type I beta; enzyme activity, inhibitor; with: 10 µM ATP): > 100000 nM
NS(=O)(=O)OC[C@@H]1C[C@@H](n2ccc3c(N[C@H]4CCc5ccccc54)ncnc32)C[C@@H]1O  pharmacodynamic active dose (NEDD8-activating enzyme; human patients; dose not given, single agent): ≥ 25 mg/m²
C[C@]12CCC[C@@H]1[C@H]1CCc3cc(O)ccc3[C@@H]1CC2 (single isomer, unassigned)  EC50 (oestrogen receptor beta; binding, competition binding): 18.7 nM
Yeast DNA polymerase alpha  salt concentration at loss of association (replisome (yeast); Ctf4-dependent association; yeast cells): 300 mM
C[C@]12CC[C@@H]3c4cc(C56CC7CC(CC(C7)C5)C6)c(O)cc4CC[C@H]3[C@@H]1CC[C@@H]2O  EC50 (oestrogen receptor alpha; binding, competition binding): > 10000 nM
O=C(Nc1n[nH]c2cc(-c3cccc(NS(=O)(=O)c4cccc(F)c4)c3)ccc12)C1CC1  remaining binding (CDKL2 (human); DiscoverX scanMAX; 1 µM; relative to: control): 55 to 60%
Cc1cc(C(C)Nc2ccccc2)c2oc(-c3ccncc3)cc(=O)c2c1 (stereo not shown)  IC50 (mTORC1; enzyme activity, inhibitor; with: 10 µM ATP): > 100000 nM
C[C@]12CC[C@H](O)CC1=CC[C@@H]1[C@@H]2CC[C@]2(C)C(c3cccnc3)=CC[C@@H]12  survival increase (CYP17A1; castration-resistant prostate cancer patients, post-docetaxel; dose not given): 3.9 months
CCOC(=O)C1=C(C)NC(C)=C(C(=O)OC)C1c1cccc([N+](=O)[O-])c1 (stereo not shown)  selectivity ratio (human KCa3.1; relative to: KCa3.1 IC50 over CaV1.x IC50): > 200 fold
N[C@@H](CO)C(=O)O  Km (serine hydroxymethyltransferase (Escherichia coli); substrate): 400 µM
Ivermectin  activity (human FXR alpha; antagonist, Tox21 qHTS; concentration not given): active
COc1cc2c(cc1C13CC4CC(CC(C4)C1)C3)[C@H]1CC[C@]3(C)[C@@H](O)CC[C@H]3[C@@H]1CC2  EC50 (oestrogen receptor beta; binding, competition binding): > 10000 nM
N[C@@H](CC(=O)O)C(=O)O  Kd (Escherichia coli L-asparaginase): 60000 to 160000 nM
Nc1nc2[nH]cc(CCc3ccc(C(=O)N[C@@H](CCC(=O)O)C(=O)O)cc3)c2c(=O)[nH]1  potency increase (thymidylate synthase; enzyme activity, inhibitor; relative to: polyglutamate over monoglutamate): 130 fold
Oc1cc2c(cc1O)C(c1ccccc1)CNCC2 (stereo not shown)  intrinsic activity (dopamine D1 receptor (bovine); agonist; retina; concentration not given): 58%
N=C(N)c1ccc2cc(OC(=O)c3ccc(N=C(N)N)cc3)ccc2c1  inhibition (acid-sensing ion channel; ion current; concentration not given, reported in literature): inhibited
Cc1cc2nc(NCCCO)n(CC(=O)c3cc(C(C)(C)C)c(O)c(C(C)(C)C)c3)c2cc1C  inhibition (protein kinase C; enzyme activity and substrate phosphorylation; concentration not given): no inhibition
O=P(O)(O)OC[C@H]1O[C@H](OP(=O)(O)OP(=O)(O)O)[C@H](O)[C@@H]1O  kcat (HGPRT Trypanosoma cruzi isoform A; substrate, refers to: GMP; 20 to 215 µM, with: guanine 70 µM): 32 s⁻¹
Cc1[nH]nc(C(F)(F)F)c1Cc1sc2c(c1C(=O)N1C[C@](C)(O)CO1)c(=O)n(C)c(=O)n2C(C)C  time to full recovery of uptake (MCT1; L-lactate uptake, inhibitor; 4T1; concentration not given, after drug washout): 12 h
C[C@]12CC[C@@H]3c4ccc(O)cc4CC[C@H]3[C@@H]1CC[C@@H]2OC(=O)c1ccccc1  EC50 (oestrogen receptor alpha; binding, competition binding): 26.9 nM
COc1ccc2c(c1OC)N=C(NC(=O)c1cccnc1)N1CCN=C21  IC50 (ATM; kinase activity, inhibitor; with: 10 µM ATP): 610 nM
Cc1csc(NC(=O)CSc2ccc(-c3ccccc3)nn2)n1  inhibition (off-target panel; 10 µM): > 50%
C[C@@]12CC=C3c4ccc(O)cc4CC[C@@H]3[C@H]1CC[C@H]2O  EC50 (oestrogen receptor alpha; binding, competition binding): 16.3 nM
CCCS(=O)(=O)Nc1ccc(F)c(C(=O)c2c[nH]c3ncc(-c4ccc(Cl)cc4)cc23)c1F  inhibition (RIPK2; kinase activity, inhibitor; 10 µM): ~96%
